Assay results collected from several papers.
Parts stem from different laboratories: compare values within a part only.

Sample 1
Target: Histone acetyltransferase KAT6A, winged helix 1, GST fusion (KAT6A, Homo sapiens, UniProt Q92794, residues 1-85)
Method: protein binding microarray
Form: double-stranded DNA, one strand shown
Matrix: in vitro
Tested at: not given
Setting: 8-mer, flanks averaged, mean of 2 arrays, mostly near background
Baseline: not given
Direction: higher = stronger binding
Measurement: E-score
Construct (chain): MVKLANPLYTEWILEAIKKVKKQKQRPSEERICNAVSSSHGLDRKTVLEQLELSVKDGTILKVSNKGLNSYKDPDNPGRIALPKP
AACACCGC: 0.244
CTTCTTGC: 0.0496
CACGGTGA: -0.0418
GCGTCAGC: 0.292
AGCGCTCA: 0.333
ATAGCGAG: 0.0836
CGGCCAAA: 0.103
GCCGGGTA: 0.283
ACGATCGC: 0.168
CATGCTTC: -0.0219
GTACCATA: -0.0138
CGACGTCG: 0.106
CTTCTGGC: -0.283
GCGATCGC: 0.352
GCTAGAAA: -0.0365
AATCCTGA: -0.152
ATCGTAAT: -0.00237
GTATTACA: 0.00504
ACGCTCTC: 0.157
AAGAGCCG: 0.237
AAGTTGAC: -0.224
CACAAGCG: 0.132
GTTATCTA: -0.115
ATTGGCGG: 0.142

Sample 2
Target: RING finger protein unkempt homolog, zinc fingers 1-6, SBP tag (UNK, Homo sapiens, UniProt Q9C0B0, residues 30-357)
Sequence of UniProt Q9C0B0 (30-357, looked up): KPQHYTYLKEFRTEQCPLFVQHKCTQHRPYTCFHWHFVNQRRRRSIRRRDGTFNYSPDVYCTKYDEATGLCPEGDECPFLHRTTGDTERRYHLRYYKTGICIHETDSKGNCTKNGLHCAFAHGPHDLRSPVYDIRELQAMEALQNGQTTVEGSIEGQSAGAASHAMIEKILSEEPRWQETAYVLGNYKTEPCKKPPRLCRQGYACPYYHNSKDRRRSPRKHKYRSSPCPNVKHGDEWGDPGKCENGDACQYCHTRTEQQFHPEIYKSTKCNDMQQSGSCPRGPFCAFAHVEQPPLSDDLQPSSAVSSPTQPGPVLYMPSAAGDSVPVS
Method: RNA Bind-n-Seq
Form: RNA
Matrix: in vitro
Tested at: 100 nM
Setting: RNA with constant flanks, vertebrate orthologous sites, ends assumed
Baseline: input RNA pool
Direction: higher = stronger binding
Measurement: bound/input enrichment
Shared flanks, not repeated: GGGAGUUCUACAGUCCGACGAUC … CAACAGAGGAUUGAGCAUCA
UUUGAGUUAGUUUUUCACAUUUUCUGUAAAUAACAGAUAAUCUUUUUAAAGUUUAUUUUUAAGUGCUGUUUUAACAAUGUGGAUAGACUAUAAAUGUACUUGCUGAAUUCAUUCAUUUUU: 0.207 ratio
AAAUCUACUUCAUGCCGUGGACUCCUUACAGGACAGACACUCUCAUCGAGUACUCCUCCCUGGACGACUUCCAAAACGCUCGGCAGACCAUCACCUACAAGCUGCCCCACCGGGUGGACG: 0.653 ratio
CCGCUAAACCCCAUUUCUUCUGUUUCAUAGUGCAGAAGUAUUCUUUCUCAGCUAUAUUAUUAGUGGACUUGUUUUAAUUUUAGGGAAACUUCCAGUACAGAUACUGUGAGCUUACAAGGA: 0.936 ratio
CAUGCACAUGACUCUAUCACCAAAAGCAAACACCUUUUUCAAAUUCAUUAAUAGCAUUGUUAGUAUUCCUUCCUUUCCUUCUGUUCCCCUAAUGCUUUAAACUAUUAGAAGUCCUGGUUC: 2.8 ratio
AGCAACCCAAGGAUUCAGGACUGGUCUUAUAAAUAUACCAAGUAAAUAUGGAACUAACAAUAGAAUUGGACAACCAAGACCUUAAUGCACUCUAUUUUAAUUUAUUUUUGUGAGGAAUUU: 0.445 ratio
AGAAGUUUAACCAGGAUUGAUCAUAAUUUCUGAGUUCUCACUGUAUUUUCAAAAGAGGAUUAGAUAGAUGAUCUUUUUUAAAAUAAAGUUCACAUUUUAUAUUUGAAUUAUUGGCUUUUU: 0.248 ratio
CCCCAGCACACUGAUAAAGACCGUGGAUUGGCUGCUCGUAUUUUCCUUAUUCUUUUUAAUUAGUUUUAUUAUGUAUGCUACCAUCCGGACUGAGAGCAUUCGGUGGCUGAUUCCAGGACA: 2.01 ratio
UUUUUUUUUUUGCACAUGACAGUGUUUGUAUUGAGGACCUUCCAAGGAAGAGGGGUGCUGUGGCAGUGGUGCCUGGGUGCCUGGUCUCCAGUGUCCCACCUCCUUCACCACCCCACUUGG: 0.271 ratio
UGCAUUAUUUGACCAGAGUUGAAGUGACAGAAUUUGAAGACAUCAAAUCAGGUUACAGAAUAGAUUUUUAUUUUGAUGAGAAUCCGUACUUUGAAAAUAAAGUUCUCUCCAAAGAGUUUC: 0.48 ratio
GUGGGGAUGAGGGUGGGAUGGGAAAGGGAUGAAUGGAUGUUAUUGGCAUUUUUAAGUGUUUAGAGUUUUUUGGGGGUUUGGGUUUUUUGUUUUGUUUUGUUUUUCCUUGUAUUCUUUUUU: 2.09 ratio
UCAGUCAUGGAGAAAAAUAUAUUAAAAUAAUUCAUGGCACUGAUGUUAAUUCUAGUCUAUUGGUUUUAUAAAAGUUAGGGUUCUUAUUUAGGAACAACAGGAAGUGACUGUUAAAGAGAA: 0.983 ratio

Sample 3
Target: Prothrombin, mature alpha-thrombin (F2, Homo sapiens, UniProt P00734)
Method: aptamer microarray, sandwich
Form: DNA with 2'F-ANA
Matrix: in vitro
Tested at: 200 nM
Setting: whole 15-mer aptamer, many near background
Added: Cy3 exosite-II aptamer, 400 nM
Direction: higher = stronger binding
Measurement: mean fluorescence intensity
Strand: GGTTGGTGTGGTTGG
2'F-ANA at 3 4 5 6 8 9 10 11 15: 52.1 a.u.
2'F-ANA at 2 4 6 7 8 9 11 12 13 14 15: 83.6 a.u.
2'F-ANA at 2 3 4 5 7 8 10 12 13 15: 56.1 a.u.
2'F-ANA at 1 2 3 7 8 9 12 14: 116 a.u.
2'F-ANA at 2 3 6 7 8 9 11 13 14: 292 a.u.
2'F-ANA at 1 5 6 7 8 9 10 12 13 15: 49.9 a.u.
2'F-ANA at 2 6 7 8 9 11: 352 a.u.
2'F-ANA at 5 7 8 9 10 11 14 15: 49.2 a.u.
2'F-ANA at 1 4 6 9 11 12 13: 154 a.u.
2'F-ANA at 1 3 5 6 7 8 12 13: 108 a.u.
2'F-ANA at 4 5 6 9 13 14: 40.4 a.u.
2'F-ANA at 1 4 5 6 8 9 10 11: 50.1 a.u.
2'F-ANA at 3 5 8 11 12 13 14 15: 62.8 a.u.
2'F-ANA at 1 2 7 8 9 11 12 13: 303 a.u.
2'F-ANA at 1 3 4 6 7 8 10 11 12: 89.3 a.u.
2'F-ANA at 3 6 7 8 10 11 14 15: 322 a.u.
2'F-ANA at 2 5 6 9 10: 47.8 a.u.
2'F-ANA at 1 2 3 4 7 8 9 10 11 15: 65.6 a.u.

Sample 4
Target: RNA binding protein fox-1 homolog 2, RRM domain, GST-SBP tag (RBFOX2, Homo sapiens, UniProt O43251-10, residues 100-194)
Method: RNA Bind-n-Seq
Form: RNA
Matrix: in vitro
Tested at: 365 nM
Setting: natural RNA segment, single round, ends assumed
Baseline: no-protein control
Direction: higher = stronger binding
Measurement: RBNS enrichment (R)
Shared flanks, not repeated: GGGAGUUCUACAGUCCGACGAUC … UGGAAUUCUCGGGUGCCAA
CACGCAUUGAAUACAUUUAAACUGUUCAUUAGCGGAGUGAUAUUUGGACAUAAAUAUCUCGUCUUCCAAUUUUAUGUAAUUAUACCUAACUUAUACCCUUGUAAAACUUG: 0.569
UAUACAGCGAAGAGACAAUCUCUGCACUUUGCUAUGUAGCUGUGUACAUAUCACUACAGUUAUAGGAAGUUUCAGUCUACAGUCCAUCCAAAGGACCAACCUGCCUUACA: 0.48
UACAAGUGACUAUAGAAGAAAGAGGCCUGGUCUUGAGCAGAGACUCUUGUUCGCAACUCAGAUCACACUCCAAUUGUGGUGACAGACUCUUCCAUAUCAGGCUGGUUUUG: 0.396
CCUCCGAAUGCUAUUUGCUCCCAGGCCAGCACUGCACUGUCUGGAGGGGGCAGAGACCACAGGAGAGGUUCUUGCCUGCAUCCUCCCAUGAGGGUGUGGCCAGUUCCCUG: 0.574
UGCCACCCGGCCGUGGCCCGCCCUGGUCAGGCUGCUUCCUUAAUCAAGAAAACUACCUGGUGAUGCAAUUUUUUUUUUUAAUUUAACUUUAAAAUAAAUGCUGCAUUUGG: 0.402
GCGUCUGCCUGGCAGUGGGCCAUGAACUGAGGGGUCUCUGUGUAGAGUAGAAGCUUCCUGUGCCUCCGGUUGCCAGGAGACAGCCUGUGCAGUUAAAUGGACCUAGAUUU: 3.57
UUUGAGCAUAAUUCACUUUAAAGUCAUUUUUCCAGCAAUGUUUAAAUUACUUUCUCAUUCUUUUAGUGUAUUCAACAUUGUCUGCCUCUUCCUGCAGUUGAUGUAAUUGC: 0.673
AUAAUACAAGCCAGGGAGAGGCUUGUAUUACAUGACAGGUGUAAUUAGUCUGCUGAGCCAGCUUUACCCAAUGAAGGGCAUAUGUGUUAGAGAGAUUAGCUAAGAGUAGA: 1.25
UCCUCGCGGGAGGGGACUGCGCUGCUAUAGCUCUUGCUGCCUCUCUUGAAUAGCUCUAACUCCAAACCUCUGUCCACACCUCCAGAGCACCAAGUCCAGAUUUGUGUGUA: 0.506
CCGUGUACACUGAUUACAUUUCAGGAGGACGUGUUCUAUUUAUGUUGUGCCUCUGCAGGCAAAGCCCUUAAUAAAUAUUUUGCAUACUUUCUAAUGACAAUGAAUGGAAU: 0.421
UGCUAAAACAGGCUUUAAAAGACAGCAAAAUAAGCCAUAUGUAGUGGUGUUAAGACUGUAAUCCCAGCACUCAGGAAGCUGAGACAGGAGAAUUGCCGGGAGUACAAAGU: 0.802
CAGGCUGUGCCUUGGUUUCCUGAGCCACCUUUACUCUGCUCUAUGCCAGGCUGUGCUAGCAACACCCAAAGGUGGCCUGCGGGGAGCCAUCACCUAGGACUGACUCGGCA: 0.471

Sample 5
Target: Centromere-binding protein 1, full length, N-terminal tag (CBF1, Saccharomyces cerevisiae, UniProt P17106, residues 1-351)
Sequence of UniProt P17106 (whole entry, looked up): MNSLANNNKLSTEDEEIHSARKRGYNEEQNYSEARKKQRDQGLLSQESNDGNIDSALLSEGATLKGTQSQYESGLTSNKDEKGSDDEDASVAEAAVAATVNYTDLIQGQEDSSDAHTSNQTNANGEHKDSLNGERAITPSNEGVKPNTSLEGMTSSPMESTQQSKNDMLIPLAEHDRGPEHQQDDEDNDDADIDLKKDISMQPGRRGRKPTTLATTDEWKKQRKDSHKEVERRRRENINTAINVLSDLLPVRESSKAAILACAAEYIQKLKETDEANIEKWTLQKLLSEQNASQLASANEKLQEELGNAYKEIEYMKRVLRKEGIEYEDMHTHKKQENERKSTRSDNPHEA
Method: protein-binding microarray
Form: double-stranded DNA, one strand shown
Matrix: in vitro
Tested at: 0.8 µM
Setting: whole 60-bp probe, no competitor
Direction: higher = stronger binding
Measurement: fluorescence intensity
Shared flanks, not repeated: … GTCTTGATTCGCTTGACGCTGCTG
CTAATCATAGTACTGATCATGAACCAGGCTCATTTC: 484 a.u.
GAAAGATAGCCCTGTCACCAGTATCGGGTGTTGTAG: 519 a.u.
TGTACGAAGCTATCTCACGTGACTATAGTAGTTAGG: 20500 a.u.
GAATGTAAATATAATCACCACCTGCCGTAAGCCTAG: 566 a.u.
CTAAATTCAAGTTACCTCGTGTTCTTAGTCATTTTC: 660 a.u.
CTAGCTTAAAAAGGTCACGTGAAGCTCTATTTTTTC: 20300 a.u.
CTACAAATATAATAGCACCTGAAATGCAAGAACTTC: 551 a.u.
CTATATATTATCCCTCTCCTGATAGTTTAATTATTC: 528 a.u.
CTAAGGCACACCCACCACGTGCCTGTTGGCTGATTC: 4590 a.u.
TGTACGAAGCTATAACTCACCTGTATAGTAGTTAGG: 545 a.u.
CTAGCTTCCCTGCCACACGTTCCGCCTCAGTCGTTC: 582 a.u.
CTACCATAGATATCTCTCAAACCCTTAGCGGCGTTC: 506 a.u.
GAAATCTGCGTTACTCACATGTGCAGATATCAGTAG: 1250 a.u.
CTAATCAGTATTACGCACGTTGGTGCTGTTATATTC: 519 a.u.
GAAGAACAGCTTGTTCGCCTGATCTCCACCTTATAG: 486 a.u.
GAAATTATAACAAAACAGGTGATAACCGTGATCTAG: 973 a.u.
TGTACGAAGCTATGTCACGCTGCTATAGTAGTTAGG: 948 a.u.
